Assay results pooled from the literature.
Numbered parts are unrelated; each lists some results of a single study.
UniProt P35368, sequence (whole entry, looked up): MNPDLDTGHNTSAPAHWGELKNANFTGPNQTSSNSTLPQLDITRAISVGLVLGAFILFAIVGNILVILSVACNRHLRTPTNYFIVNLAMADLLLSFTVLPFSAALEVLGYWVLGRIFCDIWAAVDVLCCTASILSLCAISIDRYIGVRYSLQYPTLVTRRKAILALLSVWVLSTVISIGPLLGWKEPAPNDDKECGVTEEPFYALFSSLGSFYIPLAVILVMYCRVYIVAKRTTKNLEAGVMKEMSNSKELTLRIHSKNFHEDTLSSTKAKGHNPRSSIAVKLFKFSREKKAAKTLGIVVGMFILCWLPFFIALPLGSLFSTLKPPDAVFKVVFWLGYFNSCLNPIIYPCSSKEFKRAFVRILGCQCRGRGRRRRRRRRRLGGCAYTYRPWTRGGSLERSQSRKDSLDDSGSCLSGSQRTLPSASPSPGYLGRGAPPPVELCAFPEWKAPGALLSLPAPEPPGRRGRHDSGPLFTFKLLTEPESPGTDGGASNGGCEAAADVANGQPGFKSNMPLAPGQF
UniProt Q9H3N8, sequence (whole entry, looked up): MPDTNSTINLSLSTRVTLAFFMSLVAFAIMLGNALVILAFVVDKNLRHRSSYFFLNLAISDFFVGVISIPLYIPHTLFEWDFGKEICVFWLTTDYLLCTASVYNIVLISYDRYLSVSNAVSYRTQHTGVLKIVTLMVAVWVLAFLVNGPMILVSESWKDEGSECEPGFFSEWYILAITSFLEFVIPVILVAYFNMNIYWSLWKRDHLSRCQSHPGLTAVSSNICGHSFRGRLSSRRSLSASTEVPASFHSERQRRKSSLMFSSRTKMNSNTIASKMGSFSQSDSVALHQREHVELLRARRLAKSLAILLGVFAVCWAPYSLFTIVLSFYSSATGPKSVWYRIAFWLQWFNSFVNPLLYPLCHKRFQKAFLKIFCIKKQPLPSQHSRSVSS
UniProt Q99720, sequence (whole entry, looked up): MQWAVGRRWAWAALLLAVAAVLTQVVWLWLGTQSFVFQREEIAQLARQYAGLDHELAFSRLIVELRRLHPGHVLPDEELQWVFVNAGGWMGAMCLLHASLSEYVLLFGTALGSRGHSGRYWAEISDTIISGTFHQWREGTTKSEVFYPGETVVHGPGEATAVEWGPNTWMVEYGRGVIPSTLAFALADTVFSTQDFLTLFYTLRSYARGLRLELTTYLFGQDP
UniProt P50406, sequence (whole entry, looked up): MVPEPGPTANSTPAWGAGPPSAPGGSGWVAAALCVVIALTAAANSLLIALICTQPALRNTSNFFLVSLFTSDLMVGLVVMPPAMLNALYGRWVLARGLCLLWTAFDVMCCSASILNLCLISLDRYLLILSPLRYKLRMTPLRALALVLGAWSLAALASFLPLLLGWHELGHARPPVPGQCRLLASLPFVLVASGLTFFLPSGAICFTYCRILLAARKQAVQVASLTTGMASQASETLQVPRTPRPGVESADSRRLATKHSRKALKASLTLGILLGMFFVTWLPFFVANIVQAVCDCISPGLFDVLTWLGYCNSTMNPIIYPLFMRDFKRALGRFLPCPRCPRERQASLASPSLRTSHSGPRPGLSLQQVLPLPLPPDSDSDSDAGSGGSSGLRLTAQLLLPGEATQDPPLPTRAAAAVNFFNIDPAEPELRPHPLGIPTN
UniProt P21917, sequence (whole entry, looked up): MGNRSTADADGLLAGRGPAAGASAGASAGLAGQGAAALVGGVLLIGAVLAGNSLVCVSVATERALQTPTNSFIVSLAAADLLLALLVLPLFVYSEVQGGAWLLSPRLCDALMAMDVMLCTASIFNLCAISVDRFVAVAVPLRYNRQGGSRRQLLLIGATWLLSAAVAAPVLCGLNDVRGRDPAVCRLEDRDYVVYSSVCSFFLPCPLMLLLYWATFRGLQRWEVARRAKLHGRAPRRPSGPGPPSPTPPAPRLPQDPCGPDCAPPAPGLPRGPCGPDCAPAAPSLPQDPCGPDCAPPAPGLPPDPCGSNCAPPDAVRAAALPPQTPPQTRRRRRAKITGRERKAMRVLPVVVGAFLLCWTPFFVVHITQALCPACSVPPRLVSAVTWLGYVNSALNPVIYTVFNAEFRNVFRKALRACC
UniProt P25100, sequence (whole entry, looked up): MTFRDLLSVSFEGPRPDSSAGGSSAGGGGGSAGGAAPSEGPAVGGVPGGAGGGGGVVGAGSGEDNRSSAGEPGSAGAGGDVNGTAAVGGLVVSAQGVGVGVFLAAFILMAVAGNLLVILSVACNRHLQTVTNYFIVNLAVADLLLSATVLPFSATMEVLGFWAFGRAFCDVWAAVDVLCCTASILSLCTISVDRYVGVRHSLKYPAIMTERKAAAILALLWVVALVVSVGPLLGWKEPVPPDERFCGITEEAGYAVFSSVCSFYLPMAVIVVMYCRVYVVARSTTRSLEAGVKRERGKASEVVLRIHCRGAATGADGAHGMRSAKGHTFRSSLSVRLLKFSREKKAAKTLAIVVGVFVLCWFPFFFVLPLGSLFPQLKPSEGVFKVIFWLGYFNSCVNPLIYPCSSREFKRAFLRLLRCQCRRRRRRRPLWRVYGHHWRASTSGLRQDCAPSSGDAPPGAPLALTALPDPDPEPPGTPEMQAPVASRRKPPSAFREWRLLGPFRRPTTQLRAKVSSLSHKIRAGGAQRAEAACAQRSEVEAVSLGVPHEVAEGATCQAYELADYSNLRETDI
UniProt Q5BJF2, sequence (whole entry, looked up): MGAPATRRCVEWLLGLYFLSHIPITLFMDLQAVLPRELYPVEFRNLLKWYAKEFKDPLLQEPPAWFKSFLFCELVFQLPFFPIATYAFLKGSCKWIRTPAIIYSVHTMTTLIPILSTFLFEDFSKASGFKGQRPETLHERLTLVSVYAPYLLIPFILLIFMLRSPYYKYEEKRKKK
UniProt P34969, sequence (whole entry, looked up): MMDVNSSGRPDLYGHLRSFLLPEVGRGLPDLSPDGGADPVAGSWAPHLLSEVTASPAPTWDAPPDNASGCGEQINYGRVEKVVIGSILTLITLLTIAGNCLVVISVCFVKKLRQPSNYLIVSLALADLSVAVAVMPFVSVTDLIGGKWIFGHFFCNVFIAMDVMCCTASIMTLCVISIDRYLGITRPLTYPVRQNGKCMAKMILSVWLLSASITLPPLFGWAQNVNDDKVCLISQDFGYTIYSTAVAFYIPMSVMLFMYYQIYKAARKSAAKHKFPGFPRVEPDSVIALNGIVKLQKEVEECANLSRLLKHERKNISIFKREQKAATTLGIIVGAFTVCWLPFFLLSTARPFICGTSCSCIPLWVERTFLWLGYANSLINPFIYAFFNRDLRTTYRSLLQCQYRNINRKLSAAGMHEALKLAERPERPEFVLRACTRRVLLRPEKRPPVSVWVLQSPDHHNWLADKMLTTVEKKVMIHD
UniProt Q8IW41, sequence (whole entry, looked up): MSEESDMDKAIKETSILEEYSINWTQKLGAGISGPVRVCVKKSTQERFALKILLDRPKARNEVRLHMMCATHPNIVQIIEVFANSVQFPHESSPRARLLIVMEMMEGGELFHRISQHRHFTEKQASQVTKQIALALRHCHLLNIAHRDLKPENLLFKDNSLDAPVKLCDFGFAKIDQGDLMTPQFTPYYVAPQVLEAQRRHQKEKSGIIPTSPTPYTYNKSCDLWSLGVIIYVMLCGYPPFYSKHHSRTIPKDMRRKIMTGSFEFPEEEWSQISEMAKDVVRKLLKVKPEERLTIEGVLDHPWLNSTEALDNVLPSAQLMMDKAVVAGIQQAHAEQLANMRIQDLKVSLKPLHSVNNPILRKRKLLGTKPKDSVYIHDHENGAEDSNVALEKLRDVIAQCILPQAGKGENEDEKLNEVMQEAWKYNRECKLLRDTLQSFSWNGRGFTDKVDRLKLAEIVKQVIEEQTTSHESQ
UniProt P35367, sequence (whole entry, looked up): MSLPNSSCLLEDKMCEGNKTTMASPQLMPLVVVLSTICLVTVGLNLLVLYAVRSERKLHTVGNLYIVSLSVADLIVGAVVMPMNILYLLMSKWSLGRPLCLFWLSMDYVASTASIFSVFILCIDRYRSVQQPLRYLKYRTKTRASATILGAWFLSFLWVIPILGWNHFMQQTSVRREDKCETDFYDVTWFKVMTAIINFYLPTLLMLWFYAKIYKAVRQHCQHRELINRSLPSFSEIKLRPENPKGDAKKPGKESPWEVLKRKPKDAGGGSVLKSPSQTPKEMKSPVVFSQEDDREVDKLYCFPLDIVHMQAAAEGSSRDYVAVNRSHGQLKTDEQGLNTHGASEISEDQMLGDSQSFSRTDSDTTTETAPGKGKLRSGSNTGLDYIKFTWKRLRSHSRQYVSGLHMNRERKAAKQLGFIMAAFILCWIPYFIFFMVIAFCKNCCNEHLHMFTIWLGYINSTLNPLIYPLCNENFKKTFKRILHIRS
UniProt P18825, sequence (whole entry, looked up): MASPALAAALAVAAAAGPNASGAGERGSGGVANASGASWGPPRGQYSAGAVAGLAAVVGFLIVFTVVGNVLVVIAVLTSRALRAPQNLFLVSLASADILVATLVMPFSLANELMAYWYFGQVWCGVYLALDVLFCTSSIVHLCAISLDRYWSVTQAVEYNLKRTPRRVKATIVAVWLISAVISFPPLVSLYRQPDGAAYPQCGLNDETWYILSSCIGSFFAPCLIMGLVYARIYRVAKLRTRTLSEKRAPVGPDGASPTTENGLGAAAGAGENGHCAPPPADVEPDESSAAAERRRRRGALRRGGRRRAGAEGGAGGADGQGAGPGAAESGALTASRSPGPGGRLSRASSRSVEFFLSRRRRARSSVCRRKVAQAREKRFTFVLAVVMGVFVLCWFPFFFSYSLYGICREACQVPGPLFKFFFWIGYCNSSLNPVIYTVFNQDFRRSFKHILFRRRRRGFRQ

Study 1
Species: human
Matrix: microsomes or S9
Tested at: 2 µM
Time: 0.5 h
| SMILES | remaining compound |
| --- | --- |
| COc1cc(OC)cc(-n2c3c(c4nc(OC)ccc42)C(C)CCC3)c1 (centres unmarked) | 69.1% |
| O=C(CCCOc1ccc(Cl)cc1Cl)Nc1ccc2c(c1)COC2=O | 68.6% |
| COC(=O)CCN(Cc1ccncc1)c1ncnc2c(F)cccc12 | 99.4% |
| COc1cc2cc(O)c(C)cc2cc1Cc1ccccc1 | 92.2% |

Study 2
SMILES: CO[C@@H](C)c1c(Nc2ccc([C@H](N(C)C(=O)C3CCS(=O)(=O)CC3)C(F)(F)F)cc2)cnc2cc(Cl)nn12
Effect on: ligand displacement
Tested at: 10 µM
| target | inhibition [%] |
| --- | --- |
| Alpha-2A adrenergic receptor (ADRA2A, Homo sapiens, UniProt P08913) | 14.6 |
| Alpha-1D adrenergic receptor (ADRA1D, Homo sapiens, UniProt P25100) | -6.69 |
| Sigma non-opioid intracellular receptor 1 (SIGMAR1, Homo sapiens, UniProt Q99720) | 18.8 |
| Histamine H1 receptor (HRH1, Homo sapiens, UniProt P35367) | 10.2 |
| 5-hydroxytryptamine receptor 7 (HTR7, Homo sapiens, UniProt P34969) | -18.2 |
| Histamine H4 receptor (HRH4, Homo sapiens, UniProt Q9H3N8) | 3.84 |
| 5-hydroxytryptamine receptor 6 (HTR6, Homo sapiens, UniProt P50406) | -23.5 |
| Sigma intracellular receptor 2 (TMEM97, Homo sapiens, UniProt Q5BJF2) | 49.1 |
| Alpha-2C adrenergic receptor (ADRA2C, Homo sapiens, UniProt P18825) | 4.48 |
| Muscarinic acetylcholine receptor M2 (CHRM2, Homo sapiens, UniProt P08172) | -11.6 |
| D(4) dopamine receptor (DRD4, Homo sapiens, UniProt P21917) | -10.4 |
| Alpha-1B adrenergic receptor (ADRA1B, Homo sapiens, UniProt P35368) | 27.6 |

Study 3
Compound: C=CC(=O)N1CCC([C@@H]2CCNc3c(C(N)=O)c(-c4ccc(Oc5ccccc5)cc4)nn32)CC1
Tested at: 1 µM
| target | test | inhibition [%] |
| --- | --- | --- |
| MAP kinase-activated protein kinase 5 (MAPKAPK5, Homo sapiens, UniProt Q8IW41) | enzyme activity, inhibitor | 17 |
| Discoidin domain-containing receptor 2 (DDR2, Homo sapiens, UniProt Q16832) | cell-free assay | 26 |
| Receptor-interacting serine/threonine-protein kinase 4 (RIPK4, Homo sapiens, UniProt P57078) | enzyme activity, inhibitor | 0 |
| Proto-oncogene tyrosine-protein kinase receptor Ret (RET, Homo sapiens, UniProt P07949, V804M) | enzyme activity, inhibitor | 0 |
| Receptor-type tyrosine-protein kinase FLT3 (FLT3, Homo sapiens, UniProt P36888, R834Q) | enzyme activity, inhibitor | 0 |
| Serine/threonine-protein kinase 24 (STK24, Homo sapiens, UniProt Q9Y6E0) | enzyme activity, inhibitor | 0 |

Study 4
Cell line: mouse MPNST tumor cells
Technique: high-content immunofluorescence imaging
Refers to: nuclear SOX9
Tested at: 10 µM
Time: 12 h
Notes: mean of 2 replicates
Relative to: DMSO control
Reading: higher = more nuclear SOX9
| SMILES | nuclear SOX9 intensity |
| --- | --- |
| CCCCNC(=O)NS(=O)(=O)c1ccc(C)cc1 | 98 % of DMSO |
| O=C1c2ccccc2C(=O)C1c1ccccc1 | 96.5 % of DMSO |
| COc1cc(N)c(Cl)cc1C(=O)OCCN1CCCCC1 | 93 % of DMSO |
| OCCN(CCO)c1nc(N2CCCCCCC2)c2nc(N(CCO)CCO)nc(N3CCCCCCC3)c2n1 | 184 % of DMSO |

For quick reference, copied from above (study 1):
| SMILES | remaining compound |
| --- | --- |
| COc1cc(OC)cc(-n2c3c(c4nc(OC)ccc42)C(C)CCC3)c1 (centres unmarked) | 69.1% |
| O=C(CCCOc1ccc(Cl)cc1Cl)Nc1ccc2c(c1)COC2=O | 68.6% |
| COC(=O)CCN(Cc1ccncc1)c1ncnc2c(F)cccc12 | 99.4% |
| COc1cc2cc(O)c(C)cc2cc1Cc1ccccc1 | 92.2% |
